Assay results gathered from unrelated publications.
Protocols differ between the studies behind these lines.

Cc1c(C(=O)O)ccc2c3n(nc12)[C@@H]1[C@H](C3)N(CC2CC2)[C@@]2(C(=O)Nc3cc(Cl)ccc32)[C@H]1c1cccc(Cl)c1F — adverse event incidence (phase Ia trial, measured: Vomiting; cancer patients; oral, dose not given, all patients grade ≥3): 3.7%
Cc1c(Cl)c(C)[n+]([O-])c(Cl)c1-c1noc(-c2cc(O)c(O)c([N+](=O)[O-])c2)n1 — adverse event incidence (measured: Severe severity; healthy Chinese subjects; oral, 100 mg): 0%
O=C1CCc2ccc(OCCCCN3CCN(c4cccc(Cl)c4Cl)CC3)cc2N1 — adverse event incidence (measured: Akathisia; patients, CYP2D6 normal metabolizers; dose not given, long-acting oral or depot): 1.8%
CC[C@H](C)[C@H](NC(=O)[C@H](Cc1ccccc1)NC(=O)[C@H](CCC(=O)O)NC(=O)[C@H](CCCCNC(=O)COCCOCCNC(=O)COCCOCCNC(=O)CC[C@H](NC(=O)CCCCCCCCCCCCCCCCC(=O)O)C(=O)O)NC(=O)[C@H](C)NC(=O)[C@H](C)NC(=O)[C@H](CCC(N)=O)NC(=O)CNC(=O)[C@H](CCC(=O)O)NC(=O)[C@H](CC(C)C)NC(=O)[C@H](Cc1ccc(O)cc1)NC(=O)[C@H](CO)NC(=O)[C@H](CO)NC(=O)[C@@H](NC(=O)[C@H](CC(=O)O)NC(=O)[C@H](CO)NC(=O)[C@@H](NC(=O)[C@H](Cc1ccccc1)NC(=O)[C@@H](NC(=O)CNC(=O)[C@H](CCC(=O)O)NC(=O)C(C)(C)NC(=O)[C@@H](N)Cc1cnc[nH]1)[C@@H](C)O)[C@@H](C)O)C(C)C)C(=O)N[C@@H](C)C(=O)N[C@@H](Cc1c[nH]c2ccccc12)C(=O)N[C@@H](CC(C)C)C(=O)N[C@H](C(=O)N[C@@H](CCCNC(=N)N)C(=O)NCC(=O)N[C@@H](CCCNC(=N)N)C(=O)NCC(=O)O)C(C)C — adverse event incidence (measured: Vomiting; type 2 diabetes patients; dose not given; relative to: subjects): 20%
CC(=O)O[C@H]1C(=O)[C@@]2(C)[C@H]([C@H](OC(=O)c3ccccc3)[C@]3(O)C[C@H](OC(=O)[C@H](O)[C@@H](NC(=O)c4ccccc4)c4ccccc4)C(C)=C1C3(C)C)[C@]1(OC(C)=O)CO[C@@H]1C[C@@H]2O — adverse event incidence (measured: Rash; patients with advanced solid tumours; intravenous, dose not given, all grades, possibly related to drug): 17%
CNC(=O)c1ccc(-c2cnc3ncc(Cc4ccc5ncccc5c4)n3n2)cc1F — adverse event incidence (phase 1 clinical trial, measured: peripheral edema; HCC expansion cohort; oral, 600 mg twice daily, grade 3 or 4): 0%
NCCONC(=O)[C@@H]1CC[C@@H]2CN1C(=O)N2OS(=O)(=O)O — adverse event incidence (measured: Mild severity; healthy Chinese men; intravenous, 2 g, treatment-related): 12.5%
FC(F)(F)c1ccc(CNc2ccc(Cc3c[nH]c4ncc(Cl)cc34)cn2)cn1 — adverse event incidence (measured: Anaemia; patients with advanced solid tumours; oral, dose not given, grade 1 and 2, possibly related to drug): 19%
CC[C@H](C)CCCCC(=O)N[C@@H](CCN)C(=O)N[C@H](C(=O)N[C@@H](CCN)C(=O)N[C@H]1CCNC(=O)[C@H]([C@@H](C)O)NC(=O)[C@H](CCN)NC(=O)[C@H](CCN)NC(=O)[C@H](CC(C)C)NC(=O)[C@@H](Cc2ccccc2)NC(=O)[C@H](CCN)NC1=O)[C@@H](C)O — adverse event incidence (measured: infections and infestations; mild renal insufficiency; intravenous, 0.75 mg/kg): 0%

Repeated from above:
FC(F)(F)c1ccc(CNc2ccc(Cc3c[nH]c4ncc(Cl)cc34)cn2)cn1 — adverse event incidence (measured: Anaemia; patients with advanced solid tumours; oral, dose not given, grade 1 and 2, possibly related to drug): 19%
